Measurements from different studies.
Values joined by “and” are separate records of one study, mostly repeats; a detail may differ. Numbers after ± are the reported error.

SMILES = N=C(N)NCCC[C@@H]1NC(=O)[C@H](Cc2c[nH]c3ccccc23)NC(=O)[C@@H](CC2CCCCC2)NC(=O)[C@@H]2CCCN2C(=O)[C@@H](NC(=O)CCc2ccccc2)CCCNC1=O; system = C57BL/6J mice, spinal cord; conditions = intraperitoneal, 1 mg/kg, two-compartment model; endpoint = apparent total clearance (CL/F); result = 0.99 ng/(min·ng/g)
SMILES = O=C(CCc1ccc(CNC(C(=O)OC2CCCC2)C2CCCCC2)cn1)NO (stereo not drawn); system = human, plasma; conditions = oral, 40 mg once daily, day 7, geometric mean; endpoint = AUC(tau); result = 251 ng·h/mL
SMILES = CC(C)(C)NCC(SS(=O)(=O)O)c1ccccc1 (stereo not drawn); system = Swiss Webster mouse, female, hepatocytes; conditions = 750 µM, 30 min, pH 7.4, expected value; endpoint = metabolised fraction; result = ~100%
SMILES = CC(C)c1cnc(-c2cc(Cl)ccc2F)cc1Nc1ccncc1C(=O)NC(CO)CO; test = monotherapy, item: diarrhoea; system = human patients; conditions = oral, dose not given, grade 4, phase I A; endpoint = patients with treatment-related adverse event; result = 0%
SMILES = NCCC(=O)N1Cc2ccccc2-c2c(nnn2-c2cn(C3OC(CO)C(O)C3O)c(=O)[nH]c2=O)-c2ccccc21 (mixture of isomers); test = frequency-domain fluorometry; system = methanol; endpoint = fluorescence lifetime τ3; result = 7.8 ns
SMILES = COc1cc(NC(C)=O)c2c(c1O)-c1c(OC)c(OC)cc3c1C(C2)N(C)CC3 (stereo not drawn); system = rat lung homogenate; conditions = 50 µg/mL, 4 h, room temperature, short-term storage; endpoint = remaining compound; result = 101 ± 5.2%
SMILES = CC(C)[C@H](NC(=O)CNC(=O)[C@H](CCC(N)=O)NC(=O)[C@H](C)N)C(=O)O; test = LC-MS/MS; system = human, plasma; conditions = intravenous, 30 mg/kg, single dose, geometric mean; endpoint = clearance; result = 1020 mL/min/kg
SMILES = O=c1nc(NO)ccn1[C@@H]1O[C@H](CO)[C@@H](O)[C@H]1O; test = RT-PCR, item: CYP2D3; system = rat, arthritis model, liver; conditions = oral, 80 mg/kg twice daily, 5 days; how to read = baseline: untreated arthritic rats; endpoint = mRNA level; result = 0.9 fold
SMILES = COc1ccc(-c2csc(N/N=C(\C)c3cc(O)cc(O)c3)n2)cc1; test = LC-MS/MS; system = rat plasma; conditions = 1000 ng/mL, 5 h, 25 °C, bench-top storage; endpoint = concentration after storage; result = 1060 ng/mL
SMILES = CCCC[C@H](NC(=O)CNC(=O)CNC(=O)CN1CCN(CC(=O)O)CCN(CC(=O)O)CC1)C(=O)N[C@H]1CC(=O)NCCCC[C@@H](C(N)=O)NC(=O)[C@H](Cc2c[nH]c3ccccc23)NC(=O)[C@H](CCCNC(=N)N)NC(=O)[C@@H](Cc2ccccc2)NC(=O)[C@H](Cc2c[nH]cn2)NC1=O [copper-64 labelled]; system = female C57 mouse, B16/F1 melanoma; conditions = intravenous, 0.037 MBq, 2 h; how to read = baseline: tumour over liver; endpoint = uptake ratio; result = 18
SMILES = OC1(C(F)(F)F)CCN(c2nc(Nc3ccnc(C(F)(F)F)c3)nc(-c3cccc(C(F)(F)F)n3)n2)C1 (stereo not drawn); system = rat, bone marrow; how to read = baseline: vehicle; endpoint = micronucleus frequency; result = no effect
SMILES = CC(C)(C)c1cc(-c2ccc3cccnc3n2)nc(-c2ccc3cccnc3n2)c1.COc1ccncc1.[Cl-].[Cl-].[Ru+2].c1ccc2cc3nc4c5cccnc5c5ncccc5c4nc3cc2c1; test = 1O2 phosphorescence; system = acetonitrile; conditions = excitation 630 nm; how to read = baseline: Ru(bpy)3(PF6)2; endpoint = singlet oxygen quantum yield; result = 0.69
SMILES = CC(=O)N[C@H](CC(=O)O)C(=O)N[C@H](Cc1c[nH]c2ccccc12)C(=O)N[C@H](Cc1ccccc1)C(=O)N[C@H](CCCCN)C(=O)N[C@H](C)C(=O)N[C@H](Cc1ccccc1)C(=O)N[C@H](Cc1ccc(O)cc1)C(=O)N[C@H](CC(=O)O)C(=O)N[C@H](CCCCN)C(=O)N[C@@H](C(=O)N[C@H](C)C(=O)N[C@H](CCC(=O)O)C(=O)N[C@H](CCCCN)C(=O)N[C@H](Cc1ccccc1)C(=O)N[C@H](CCCCN)C(=O)N[C@H](CCC(=O)O)C(=O)N[C@H](C)C(=O)N[C@H](Cc1ccccc1)C(N)=O)C(C)C; system = statin-treated high-risk CHD men, plasma; conditions = oral, 300 mg daily, day 13, 0 to 8 h, mean, detected subjects only; endpoint = Cmax; result = 6.05 ng/mL
SMILES = O=C1C2=C(CCN(Cc3ccccc3)C2)N2CCN=C2N1Cc1ccc(C(F)(F)F)cc1; test = microsomal stability; system = human liver microsomes; endpoint = hepatic clearance; result = 19.7 mL/min/kg
SMILES = [11CH3]c1ccc2nc(C3CCC3)n(-c3ccc4[nH]ncc4c3)c2n1; system = human female, skin; endpoint = absorbed radiation dose; result = 2.2 µSv/MBq
SMILES = O=C1OC2(c3ccccc31)c1cc(I)c(O)c(I)c1Oc1c2cc(I)c(O)c1I; system = female C57BL/6 mouse, plasma; conditions = intraperitoneal, 50 mg/kg; endpoint = CL/F; result = 16.7 mL/min/kg
SMILES = COc1cc([O-])c(C=NCCCN(C)CCN(C)CCCN=Cc2c([O-])cc(OC)cc2OC)c(OC)c1.[67Ga+3]; system = rat; conditions = intravenous, 2 h; how to read = baseline: heart over liver; endpoint = tissue uptake ratio; result = 2.7 ± 0.3
SMILES = Cn1c(=O)oc2ccc(-c3ccc(CC(C#N)NC(=O)C4CNCCCO4)c(F)c3)cc21 (stereo not drawn); system = human; conditions = oral, 40 mg once daily, TEAE, multiple ascending dose; endpoint = bacterial test positive incidence; result = 22.2%
SMILES = O=C([O-])CN1CCN(CC(=O)[O-])CCN(CC(=O)NCCc2ccc3c(c2)C2C=CCC2C(c2cc4c(cc2Br)OCO4)N3)CCN(CC(=O)[O-])CC1.[111In+3] (stereo not drawn); system = mouse, Hec50 endometrial tumour xenograft, urine and hepatobiliary; conditions = 4 h post-injection; endpoint = excreted dose; result = > 60 % injected dose
SMILES = CC(C)(O)c1ncc([S@](N)(=O)=NC(=O)Nc2c3c(cc4c2CCC4)CCC3)s1; system = healthy human volunteers, plasma; conditions = oral, 25 mg twice daily, day 14, fed, enteric-coated tablet; endpoint = half-life; result = 10.4 h
SMILES = CCCCCCCCCCCCCCCC(=O)N[C@@H](CCCCN)C(=O)N[C@@H](CCCCN)C(=O)N[C@@H](CO)C(=O)N[C@@H](CCCNC(=N)N)C(=O)N[C@@H](C)C(=O)N[C@@H](CC(C)C)C(=O)N[C@@H](Cc1ccccc1)C(N)=O; system = cynomolgus monkeys, both sexes, plasma; conditions = intravenous infusion, 1 h, doses up to 30 mg/kg; endpoint = Cmax; result = > 200 µM
SMILES = Cc1ccc(OCC(=O)O)cc1; system = Sprague-Dawley rat, male, plasma; conditions = oral gavage, 30 mg/kg of parent drug; endpoint = Cmax; result = 4840 ± 1680 ng/mL
SMILES = C=CC(=O)Nc1cc(Nc2nccc(-c3cn(C4CC4)c4ccccc34)n2)c(OC)cc1N(C)CCNC; test = radio-HPLC; system = human male, feces; conditions = oral, 110 mg, 96 to 240 h, sample holds 16.61% dose; how to read = baseline: dose; endpoint = excreted amount; result = 3.8%
SMILES = NC[C@@H](C(=O)Nc1ccc(-c2cn[nH]c2)cc1)c1ccccc1; test = OECD 405 eye irritation; system = New Zealand White rabbit, eye; conditions = topical, 0.1%, 8 h (day 1), scale 0 to 4; how to read = direction not given; endpoint = chemosis score; result = 0
SMILES = COCCOCCOCCOCCC(=O)NCc1cc(CNC(=O)CCOCCOCCOCCOC)cc(-c2cc3cc4nc(c(-c5ccc(CCC(=O)O)cc5)c5[nH]c(cc6nc(c(OC)c2[nH]3)CC6(C)C)cc5-c2cc(CNC(=O)CCOCCOCCOCCOC)cc(CNC(=O)CCOCCOCCOCCOC)c2)CC4(C)C)c1; system = water with 5% DMF; conditions = room temperature; endpoint = singlet excited-state lifetime; result = 3.29 ns
SMILES = CC1(CO)CCCC2(C)C1CCC1(C)c3cocc3CCC12 (stereo not drawn); system = NOD-SCID mouse, intact mature male; conditions = oral, 10 mg/kg, 13 daily doses, androgen-dependent tissue; endpoint = testes weight; result = no effect
SMILES = C[C@H](Oc1cc(-c2cnn(C3CCN(CC[18F])CC3)c2)cnc1N)c1c(Cl)ccc(F)c1Cl; test = PET imaging; system = nude mouse, heart; conditions = iv, 30 min post injection; endpoint = tracer uptake; result = 1.9 ± 0.6 %ID/cc
SMILES = COc1cc(N(C)CCN(C)C)c(NC(=O)CCSCC(NC(C)=O)C(=O)O)cc1Nc1nccc(-c2cn(C3CC3)c3ccccc23)n1 (stereo not drawn); system = human, urine and feces; conditions = 0 to 96 h urine, 0 to 240 h feces; how to read = baseline: dose; endpoint = excreted amount; result = 2.04%
SMILES = NC(=O)[C@H](Cc1ccccc1)N[11C](=O)OCc1ccccc1; system = male Wistar rats, brain supernatant; conditions = intravenous, 15 min; endpoint = intact tracer; result = 97% and 97.3%
SMILES = CC[C@@H](C)[C@@H](NC(=O)[C@@H](C)NC(=O)[C@@H](CCCCN)NC(=O)[C@@H](CC(C)C)NC(=O)[C@@H](CC(C)C)NC(=O)[C@H](NC(=O)[C@@H](CCCCN)NC(=O)[C@@H](CC(C)C)NC(=O)[C@@H](C)NC(=O)[C@@H](CCCCN)NC(=O)[C@@H](CCCCN)NC(=O)[C@@H](CCCCN)NC(=O)[C@@H](C)NC(=O)[C@@H](CCCCN)NC(=O)[C@@H](CO)NC(=O)[C@@H](Cc1ccccc1)NC(=O)[C@H](NC(=O)[C@@H](CCCCN)NC(=O)[C@@H](CC(C)C)NC(=O)[C@@H](Cc1ccccc1)NC(=O)[C@@H](CO)NC(=O)[C@@H](CCCCN)NC(=O)[C@@H](Cc1c[nH]c2ccccc12)NC(=O)[C@@H](CCCCN)NC(C)=O)[C@H](C)O)[C@H](C)O)C(=O)N[C@H](CO)C(=O)N[C@H](CCCCN)C(N)=O; test = circular dichroism; system = aqueous buffer; conditions = pH 7.0, 5 °C; how to read = baseline: reference peptide in TFE; endpoint = helical content; result = 28%
SMILES = Cc1cccc(O[C@H]2CCC[C@@H](C(C)CNCc3ccncc3)C2)c1 (relative stereo); system = C57BL/6 female mice, plasma; conditions = intravenous, 3 mg/kg; endpoint = AUC(0-inf); result = 701 ng·h/mL
SMILES = CCNC(=O)OCc1c(COC(=O)NCC)c(-c2ccc(OC)cc2)n2c1Cc1ccccc1-2; system = BALB/c nude mice, blood; conditions = dose not given, day 10; endpoint = red cell distribution width; result = 18.5 ± 0.8%
SMILES = COC(=O)c1ccc(-c2cn(Cc3cc(Cl)ccc3O[11CH3])nn2)cc1; test = PET one-tissue compartment model; system = rhesus monkey, white matter; conditions = dose not given; endpoint = distribution volume (VT); result = 0.496 mL/cm³

For quick reference, copied from above:
SMILES = C=CC(=O)Nc1cc(Nc2nccc(-c3cn(C4CC4)c4ccccc34)n2)c(OC)cc1N(C)CCNC; test = radio-HPLC; system = human male, feces; conditions = oral, 110 mg, 96 to 240 h, sample holds 16.61% dose; how to read = baseline: dose; endpoint = excreted amount; result = 3.8%
SMILES = COc1cc(NC(C)=O)c2c(c1O)-c1c(OC)c(OC)cc3c1C(C2)N(C)CC3 (stereo not drawn); system = rat lung homogenate; conditions = 50 µg/mL, 4 h, room temperature, short-term storage; endpoint = remaining compound; result = 101 ± 5.2%
SMILES = CC(C)(C)c1cc(-c2ccc3cccnc3n2)nc(-c2ccc3cccnc3n2)c1.COc1ccncc1.[Cl-].[Cl-].[Ru+2].c1ccc2cc3nc4c5cccnc5c5ncccc5c4nc3cc2c1; test = 1O2 phosphorescence; system = acetonitrile; conditions = excitation 630 nm; how to read = baseline: Ru(bpy)3(PF6)2; endpoint = singlet oxygen quantum yield; result = 0.69
SMILES = CC1(CO)CCCC2(C)C1CCC1(C)c3cocc3CCC12 (stereo not drawn); system = NOD-SCID mouse, intact mature male; conditions = oral, 10 mg/kg, 13 daily doses, androgen-dependent tissue; endpoint = testes weight; result = no effect
